Assay results collected from several papers.
Numbered parts are unrelated; each lists some results of a single study. Changes are numbered by the printed parent chain.

Series 1
Target: CCNE2, cyclin fold, Cln2 fusion (human)
Method: yeast growth competition, sequencing
Matrix: yeast
Setting: strong parent motif
Relative to: not given
Reading: higher = stronger binding
Starting sequence: SCAPER docking peptide (human); SNARRSLNFGGST; partner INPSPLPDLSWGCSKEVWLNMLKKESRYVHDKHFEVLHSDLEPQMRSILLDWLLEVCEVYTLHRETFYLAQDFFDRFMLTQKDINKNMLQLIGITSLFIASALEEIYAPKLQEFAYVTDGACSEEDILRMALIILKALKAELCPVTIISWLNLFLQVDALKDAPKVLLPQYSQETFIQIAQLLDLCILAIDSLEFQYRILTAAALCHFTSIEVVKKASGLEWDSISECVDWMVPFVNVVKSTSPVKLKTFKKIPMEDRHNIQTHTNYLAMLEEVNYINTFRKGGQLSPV
Under “normalised enrichment score”, `SVARRSLNFGGST [N2V]` is recorded as 0.98.
`SNARRSLKFGGST [N8K]`: “normalised enrichment score” 1.44.
For `SNARRCLNFGGST [S6C]`, “normalised enrichment score” read 2.94.
`SNARRSINFGGST [L7I]`: “normalised enrichment score” 1.11.
For `SNARRSLNFGGRT [S12R]`, “normalised enrichment score” read 0.0889.
Under “normalised enrichment score”, `SNARRSLNFGKST [G11K]` is recorded as 1.46.
`SDARRSLNFGGST [N2D]`: “normalised enrichment score” 0.248.
`SNARRSLNFGLST [G11L]`: “normalised enrichment score” 0.188.
For `SNARRSLHFGGST [N8H]`, “normalised enrichment score” read 1.57.
Under “normalised enrichment score”, `SNAVRSLNFGGST [R4V]` is recorded as 1.23.
`SNARRSNNFGGST [L7N]` — result for “normalised enrichment score”: -0.000111.
Under “normalised enrichment score”, `SNARRSLMFGGST [N8M]` is recorded as 0.755.
`SNARRSLVFGGST [N8V]`: “normalised enrichment score” 0.529.
Under “normalised enrichment score”, `MNARRSLNFGGST [S1M]` is recorded as 1.29.
`SNARRSLNFGGKT [S12K]` — result for “normalised enrichment score”: 1.38.
`SNARRSENFGGST [L7E]`: “normalised enrichment score” -0.28.
For `SNARRSLNYGGST [F9Y]`, “normalised enrichment score” read -0.0011.
For `SNAARSLNFGGST [R4A]`, “normalised enrichment score” read -0.112.
Under “normalised enrichment score”, `SNARRSLNFGGSC [T13C]` is recorded as 1.65.
`NNARRSLNFGGST [S1N]` — result for “normalised enrichment score”: 1.34.
For `SEARRSLNFGGST [N2E]`, “normalised enrichment score” read 0.576.

Series 2
Target: RING finger protein unkempt homolog, zinc fingers 1-6, GST-SBP tag (UNK, Homo sapiens, UniProt Q9C0B0, residues 30-357)
Chain of UniProt Q9C0B0 (30-357, looked up): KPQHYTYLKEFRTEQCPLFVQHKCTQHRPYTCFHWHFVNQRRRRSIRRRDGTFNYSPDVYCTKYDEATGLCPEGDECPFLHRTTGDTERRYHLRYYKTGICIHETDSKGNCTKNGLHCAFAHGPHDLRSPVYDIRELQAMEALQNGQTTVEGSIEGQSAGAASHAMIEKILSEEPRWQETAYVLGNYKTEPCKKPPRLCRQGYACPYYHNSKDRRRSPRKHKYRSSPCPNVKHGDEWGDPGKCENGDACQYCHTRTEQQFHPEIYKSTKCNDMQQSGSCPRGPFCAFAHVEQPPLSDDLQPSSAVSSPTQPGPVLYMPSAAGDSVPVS
Method: RNA Bind-n-Seq
Molecule type: RNA
Matrix: in vitro
Tested at: not given
Setting: RNA with constant flanks, human and mouse sites, ends assumed
Relative to: input RNA pool
Reading: higher = stronger binding
Constant ends, left off below: GGGAGUUCUACAGUCCGACGAUC … CAACAGAGGAUUGAGCAUCA
The bound/input enrichment of `GCUUUGACUUCAAAAAAAGCAAGAUUUGAUCCAUAUGGAAAGAAUAAGUUCUCCACUUGUAGAAUUUGUAAAAGUUCUGUGCACCAACCAGGUUCUCAUUACUGCCAGGGCUGUGCCUAC` is reported as 0.33 ratio.
With `CGGAGCCCUCUGACCCAGGAACAGCUCAUCCCCAACUUGGCCAUGAAGGAAGUCAUUGACGCUUUCAUCUCUGAGAACGGCUGGGUAGAGGACUAUUGAGGCCCCAUGUCCUGCCUGGCA` the bound/input enrichment was 0.15 ratio.
`AGGUUUCCGGUUCCGGUGUAACGUUCGGGCUCCGUCUCAGGGGCUGAAGUUUGUGAGGUGUAGUAUUGAGUCCUGUUUGAGCUAUUGUUCUCUUUUUCCUGAAAAAUGGCACUGUCAAAG` has a bound/input enrichment of 0.219 ratio.
For `CGGUUGGUGUGGAGAACUCUGCGAGUCUCUUGGGUUUUUUGUUUUUUGUUUUUUCCAGCUUCUUUCCGCCUCUAUUCUGCCUGUUCUGUAGGGCGCAGUUAUGGGUCGCAAGAAGAAGAA`, the bound/input enrichment was 0.363 ratio.
For `ACCGCAUUCAUAGUAGAAAGAGACUUCGGCGGAAUCACUAAUGGGAAACCUGAAGAUAAAUUAGGCAUUCGAGGCUCCAACACAUGUGAGGUCCAUUUUGAAAAUACCAGAGUGCCUGUG`, the bound/input enrichment was 0.251 ratio.
The bound/input enrichment of `UCACGCUCAAGCCUUAAAAAUCACAAAGGAAUCCACAUGGGGGAGAAGCCCUAUAAAUGCAGCUAUUGUGAGAAAUCUUUCAACUACAGUUCUGCCCUUGAACAACAUAAAAGGAUUCAU` is reported as 0.112 ratio.
`AAGCAGCAAACAGAAAGGGUUACAAAAGAGAUGAAUGAAUUUAUUCACAGAGAGCAAAAUAGUUUAUCACUUCUAGAAGCAAGUGAAGCCGACCGUGAUGCGGUCAAUGACAAGAAAAGA` has a bound/input enrichment of 0.854 ratio.
For `CCAACCACAGCCCCUCACAAGGAGAGGUAUUUUGACAGAGUCGAUGAGAACAACCCAGAAUAUUUGCGGGAGAGGAACAUGGCACCAGACCUUCGUCAGGACUUCAAUAUGAUGGAGCAG`, the bound/input enrichment was 0.386 ratio.
The bound/input enrichment of `UAUUGAAAAUACACCAUAUGAAUUUAGUGAAUGUGGGAAAGCUUUCAUCCUUAUUACAUCUUAUUUGAUACUAGGGAAAUCUCCUGAUUAAAUUCACAUGCAUGAUAGGCAUGUUGGAAA` is reported as 0.487 ratio.
`GAAUCCUACUCAGGCGGAUUUUGCAACACCAAGCUCACAGCAGCAGCAUCUUAGUCACAGUAGGGUAGUUUUGGGGCUCUGUGGCCAGGGUUUUAUUCACAUGCAGGUUUGGAAAAUGUA` gave a bound/input enrichment of 1.5 ratio.
`GAUAUUGUGCUUGCCAUCCUUGAAUUACUAAAGUAUCAUCAGAGAGUCUUAUAUAUUGAUAUAGAUAUUCAUCAUGGUGAUGGUGUUGAAGAAGCUUUUUAUACAACAGAUCGUGUAAUG` gave a bound/input enrichment of 0.348 ratio.

Series 3
Target: ABI1, truncated, D143A, DHFR fusion (Arabidopsis thaliana)
Method: DHFR PCA, deep sequencing
Matrix: yeast
Setting: methotrexate growth selection, single substitutions
With: (+)-ABA 0.0091 µM
Relative to: wild-type fitted maximum
Reading: higher = stronger binding
Starting sequence: PYL1, truncated, DHFR fusion (Arabidopsis thaliana); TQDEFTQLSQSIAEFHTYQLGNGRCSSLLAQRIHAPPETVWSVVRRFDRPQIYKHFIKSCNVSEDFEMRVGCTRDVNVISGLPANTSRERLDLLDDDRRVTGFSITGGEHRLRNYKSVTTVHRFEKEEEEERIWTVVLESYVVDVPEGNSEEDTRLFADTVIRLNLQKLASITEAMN
For `V145A`, “relative binding score” read -1.67%.
For `S59R`, “relative binding score” read 2.74%.
For `E64S`, “relative binding score” read 34.8%.
Under “relative binding score”, `E147M` is recorded as 8.7%.
Under “relative binding score”, `D97F` is recorded as 2.94%.
Under “relative binding score”, `R111M` is recorded as 11%.
`H34F` — result for “relative binding score”: 25.9%.
Under “relative binding score”, `D92C` is recorded as 6.6%.
`S27Y` — result for “relative binding score”: 5.92%.
`V43S` — result for “relative binding score”: 0.262%.
For `R99I`, “relative binding score” read 0.925%.
`T101A`: “relative binding score” 0.742%.
`L94H`: “relative binding score” 12.3%.
Under “relative binding score”, `T86W` is recorded as 75.4%.
Under “relative binding score”, `T6I` is recorded as 40.4%.
For `D159N`, “relative binding score” read 14.8%.

Series 4
Target: Histone acetyltransferase KAT6A, winged helix 1, GST fusion (KAT6A, Homo sapiens, UniProt Q92794, residues 1-85)
Method: protein binding microarray
Molecule type: double-stranded DNA, one strand shown
Matrix: in vitro
Tested at: not given
Setting: 8-mer, flanks averaged, mean of 2 arrays, mostly near background
Relative to: not given
Reading: higher = stronger binding
Residues (chain): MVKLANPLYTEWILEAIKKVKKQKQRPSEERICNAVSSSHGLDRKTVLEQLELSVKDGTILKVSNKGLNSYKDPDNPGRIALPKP
The E-score of `AGCCGGCT` is reported as 0.305.
With `ATCACGAC` the E-score was -0.131.
For `GGAGAAGA`, the E-score was -0.00188.
`ATCCCGCC` has an E-score of 0.409.
The E-score of `ATTTTCCC` is reported as -0.00604.
`ATTTTCAC` has an E-score of -0.0201.
`GATCCGGA` has an E-score of -0.0974.
With `CTAGTGTC` the E-score was -0.0616.
With `CAGACCTA` the E-score was -0.0619.
For `CGCACCGA`, the E-score was 0.121.
For `CGATTGAA`, the E-score was -0.0704.
`CTGTTGCC` has an E-score of -0.0709.
`CGGAATGA` gave an E-score of 0.0698.
The E-score of `ATAGTAGA` is reported as -0.175.
`GGCAGGAA` gave an E-score of 0.0411.
`AGGGTTTA` gave an E-score of -0.162.
With `CTTACAAA` the E-score was -0.0622.

Other studies, line by line
With `PhoQ, residues 284 288 289 292 302 303 ALASRC` the fold induction was 17.8 (PhoP, residues 12 14 15 18 19 IQFRS (Escherichia coli, UniProt P23836); Sort-seq, refers to: YFP reporter; E. coli; PhoQ-PhoP variant library, with: 10 µM Mg2+; relative to: high Mg2+ state, higher = stronger signaling).

A few entries again (series 4):
`CTGTTGCC` has an E-score of -0.0709.
The E-score of `AGCCGGCT` is reported as 0.305.
The E-score of `ATAGTAGA` is reported as -0.175.
